Assay results of several laboratories.
Numbered parts are unrelated; each lists some results of a single study.

Series 1 — method: RNA Bind-n-Seq; molecule type: RNA; medium: in vitro; concentration: not given; baseline: input RNA pool; direction: higher = stronger binding
Target: RING finger protein unkempt homolog, zinc fingers 1-6, GST-SBP tag (UNK, Homo sapiens, UniProt Q9C0B0, residues 30-357)
Notes: RNA with constant flanks, human and mouse sites, ends assumed
Shared flanks, not repeated: GGGAGUUCUACAGUCCGACGAUC … CAACAGAGGAUUGAGCAUCA
Target sequence (chain): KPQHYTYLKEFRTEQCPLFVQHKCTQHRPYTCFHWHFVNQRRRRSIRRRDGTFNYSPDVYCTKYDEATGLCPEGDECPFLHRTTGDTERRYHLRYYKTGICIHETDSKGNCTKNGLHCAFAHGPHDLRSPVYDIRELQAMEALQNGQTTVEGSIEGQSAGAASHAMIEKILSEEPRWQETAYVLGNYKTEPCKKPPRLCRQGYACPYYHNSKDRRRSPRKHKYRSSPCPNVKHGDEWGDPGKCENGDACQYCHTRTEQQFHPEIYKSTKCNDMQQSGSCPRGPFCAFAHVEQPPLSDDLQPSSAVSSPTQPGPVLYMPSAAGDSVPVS
Sequence | bound/input enrichment
AGAAUUGAAGUGGGAGACGUGAAUCCUUCUCAAACACAGUAUAUUUCUGAACCUAGUCUCUGUCCAGAUUGCAGAGAAGGUCUGCUGUGCCAGCAGCAGAGGGACCUUCGAGAGUAUACC | 0.122 ratio
UUUUAUAUCAAACAAAAGAAAGCUAGACCUUCCGUCAAAGAAACUCUUCAGAAGUCUGGUGUUAGGAAAGAGUUUCCAAUUACUGAGGCAGUAGGAUCUGAUAAGACAAAUAGGCAUCCC | 1.18 ratio
GAUACUGGCAAACUGACCGGUGGAUCAUUUACCAUGAAAUACCAUGAUAUGCCUGACGUCAUAGAUUUUCUAGUCUUGAGACAACAAUUUGAUGAUGCAAAGUAUAGACGAUGGAAUAUA | 0.761 ratio
ACCACGCUCAACCUCUUUCCGCAGGUGCCGCGGUCUCAGGACACACUGAAUAAUAAUUCUCUGGGCAAAAAGCACAGUUGGCAGGAUCGGGUGUCUCGAUCAUCCUCACCCCUGAAGACA | 0.37 ratio
CUAACUAACUACACCUUUGAAAAUGUGAGCUUUCAUGUUCUUCAUCAGCGUUUUCCCCUCUUUACCUUUCGAGUCUUGUCAGACUGGUUUGAUAACAAGACAGAUCUAUACAGAUGGAAA | 0.568 ratio
UGUUUCUCAAGGUUUACUCAGUUAACAGAUCACCAAAUUCAGCAGCUCAUUUUCACAGCUUGUAACCCUUGGUAAUAAUGUUGGAUGCCGGGGCCUAUGCAUGUUGACAUUCUGGUUGUC | 0.126 ratio
GGCCUGACAAAUUAUGCUGCAGCAUAUUGUACUGGCCUGCUGCUGGCCCGCAGGCUUCUCAAUAGGUUUGGCAUGGACAAGAUCUAUGAAGGCCAAGUGGAGGUGACUGGUGAUGAAUAC | 0.255 ratio
GCAGCUGCGGCGCGUUUCUAUUCCAAGGACAAUGAAGGCAGCUGGUUCCGCUCCCUCUUUGUUCACAAAGUGGAUCCCCGGAAGGAUGCCCACUCCACCCUGCUGUCCAAGAAGGAAACC | 0.0805 ratio
UUAAAAUUACUGAAGUUAGAGAGAAUUAAAGACUAUCUUCUCAUGGAGGAAGAAUUCAUUAGAAAUCAGGAACAAAUGAAACCAUUAGAAGAAAAGCAAGAGGAGGAAAGAUCAAAAGUG | 2.14 ratio
GGUGUUGCGAGUAUAGGAGGCAAAAUUGCACCCUGUUGAAAACCACCACCUUAGAUCAUCUAGGUUUUACUUUUAGGAUAAGACACUUGAGGGAAAGGCUGUGAAACUGAACCUCUGUUA | 1.78 ratio
GAAGCCAGCUCUACCGAGGACUCACGUGCUACCAGCAUCCCUGGGAGCCCUUUCAACCUAUUUAGUGACCUUGACAAAGCAGAUGACCUGCCCAGUCACCAAAAAAUAUUUGAUCUAAUG | 0.444 ratio

Series 2 — method: aptamer microarray, sandwich; molecule type: DNA with 2'F-ANA; medium: in vitro; concentration: 200 nM; together with: Cy3 exosite-II aptamer, 400 nM; direction: higher = stronger binding; sequence: GGTTGGTGTGGTTGG
Target: Prothrombin, mature alpha-thrombin (F2, Homo sapiens, UniProt P00734)
Notes: whole 15-mer aptamer, many near background
Modification | mean fluorescence intensity
2'F-ANA at 1 5 8 9 11 13 14 | 54.3 a.u.
2'F-ANA at 2 3 4 7 11 | 657 a.u.
2'F-ANA at 1 2 4 8 9 10 12 13 14 | 51 a.u.
2'F-ANA at 2 3 4 5 10 12 13 14 15 | 102 a.u.
2'F-ANA at 7 10 11 12 14 | 121 a.u.
2'F-ANA at 1 2 6 8 12 13 15 | 259 a.u.
2'F-ANA at 1 5 7 8 9 10 11 13 14 15 | 64.1 a.u.
2'F-ANA at 1 2 3 5 11 12 13 15 | 75 a.u.
2'F-ANA at 1 3 5 7 10 13 14 | 73.4 a.u.
2'F-ANA at 1 2 3 7 8 12 | 637 a.u.
2'F-ANA at 4 5 6 7 8 13 14 15 | 53.6 a.u.
2'F-ANA at 1 2 4 9 12 | 292 a.u.
2'F-ANA at 2 4 5 6 7 10 11 12 | 52 a.u.
2'F-ANA at 1 2 3 4 5 6 7 8 12 14 | 49.3 a.u.
2'F-ANA at 2 4 6 7 10 11 13 15 | 65.3 a.u.
2'F-ANA at 1 2 4 5 6 10 | 46.9 a.u.
2'F-ANA at 2 6 7 9 13 14 15 | 105 a.u.
2'F-ANA at 2 3 5 6 10 11 12 14 15 | 49 a.u.
2'F-ANA at 2 3 4 7 9 10 13 14 | 191 a.u.
2'F-ANA at 7 8 10 12 14 | 131 a.u.
2'F-ANA at 1 3 4 5 6 7 8 9 10 13 14 15 | 46.4 a.u.
2'F-ANA at 2 3 4 5 6 9 12 13 | 99.9 a.u.
2'F-ANA at 2 3 4 5 6 7 8 12 13 15 | 117 a.u.
2'F-ANA at 1 2 4 6 7 9 11 12 13 | 144 a.u.
2'F-ANA at 3 4 5 7 8 11 12 15 | 178 a.u.

Series 3 — method: universal PBM; molecule type: double-stranded DNA, one strand shown; medium: in vitro; concentration: 600 nM; direction: higher = stronger binding
Target: Sal-like protein 4, full length isoform A (SALL4, Homo sapiens, UniProt Q9UJQ4, residues 1-1053)
Chain of UniProt Q9UJQ4 (whole entry, looked up): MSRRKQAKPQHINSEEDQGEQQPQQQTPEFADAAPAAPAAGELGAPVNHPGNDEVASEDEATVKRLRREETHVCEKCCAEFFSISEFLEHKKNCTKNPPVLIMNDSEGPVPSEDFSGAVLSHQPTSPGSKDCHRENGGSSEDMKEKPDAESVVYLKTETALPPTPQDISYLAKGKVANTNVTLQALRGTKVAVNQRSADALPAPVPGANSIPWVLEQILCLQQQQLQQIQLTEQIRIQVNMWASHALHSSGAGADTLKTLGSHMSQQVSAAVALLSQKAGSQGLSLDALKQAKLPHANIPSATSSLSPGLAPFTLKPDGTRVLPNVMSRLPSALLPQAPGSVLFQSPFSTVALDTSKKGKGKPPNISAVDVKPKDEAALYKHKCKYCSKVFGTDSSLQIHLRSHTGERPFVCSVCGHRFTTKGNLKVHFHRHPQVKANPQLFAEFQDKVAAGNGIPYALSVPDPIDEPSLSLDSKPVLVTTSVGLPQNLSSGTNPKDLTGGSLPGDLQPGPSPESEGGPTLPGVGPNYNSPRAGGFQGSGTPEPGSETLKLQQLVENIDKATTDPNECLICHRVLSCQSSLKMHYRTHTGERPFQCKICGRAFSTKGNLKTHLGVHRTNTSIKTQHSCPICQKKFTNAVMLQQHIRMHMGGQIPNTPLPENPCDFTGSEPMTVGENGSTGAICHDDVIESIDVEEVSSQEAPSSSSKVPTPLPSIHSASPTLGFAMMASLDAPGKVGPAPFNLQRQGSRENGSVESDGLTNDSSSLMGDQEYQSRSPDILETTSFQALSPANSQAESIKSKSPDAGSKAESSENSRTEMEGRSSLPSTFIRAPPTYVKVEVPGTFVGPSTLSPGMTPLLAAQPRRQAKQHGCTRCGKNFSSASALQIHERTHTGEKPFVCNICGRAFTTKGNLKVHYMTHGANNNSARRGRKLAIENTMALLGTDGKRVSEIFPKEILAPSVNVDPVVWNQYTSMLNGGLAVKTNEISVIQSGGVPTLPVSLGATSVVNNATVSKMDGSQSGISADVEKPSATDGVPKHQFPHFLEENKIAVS
Notes: 8-mer, flanks averaged, mean of replicates
Sequence | E-score
AGAAGCCT | 0.0155
CGGGACCG | -0.351
CGGCATAA | 0.15
CTTAATAA | 0.317
ATGCGGCG | -0.133
AGTCAGAC | 0.00477
ACCGTCGG | -0.32
ACGAGTGG | -0.0937
TGATGAAA | 0.141
CCACATCA | 0.0944
TAAGAGAA | 0.187
TTCGACAA | 0.199
AGGAATCA | 0.159
CCAGGGCG | -0.457
AGAGGGGG | -0.18
GATCGTGC | -0.0611

Series 4 — method: RNA Bind-n-Seq; molecule type: RNA; medium: in vitro; concentration: 365 nM; baseline: no-protein control; direction: higher = stronger binding
Target: RNA binding protein fox-1 homolog 2, RRM domain, GST-SBP tag (RBFOX2, Homo sapiens, UniProt O43251-10, residues 100-194)
Notes: natural RNA segment, single round, ends assumed
Shared flanks, not repeated: GGGAGUUCUACAGUCCGACGAUC … UGGAAUUCUCGGGUGCCAA
Residues (chain): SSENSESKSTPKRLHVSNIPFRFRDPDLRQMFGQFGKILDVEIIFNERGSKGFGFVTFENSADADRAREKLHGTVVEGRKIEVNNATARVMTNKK
Sequence | RBNS enrichment (R)
CCUUCAAAGCAGGGAAGAAUACCUGACUCGUUGCUUCGCAGAGCUGCUUUGACCUGCAGAGACUUGUAGACCUCUUCUCUUCUCUGUCCCCUUGGUUACCACCUACCCAC | 0.903
UAUUUUUGUUUUUAAUGCUUUGAUAUUUCAAUGUUAGCCUCAAUUUCUGAACACCAUAGGUAGAAUGUAAAGCUUGUCUGAUCGUUCAAAGCAUGAAAUGGAUACUUAUA | 1.65
CUUAGGAAGCCCCUUCGCUUCAGUUGCUCGCUUCUGGGUGUGCUCCCUUCGAAGGCCCAGAUAAGACAGGGAACACUUGUGAGCACACAGAGCAGCAUCUGAUGCCCUGU | 0.216
UUCGCACAUUUAAGCAUCUUUGUUUUACAUAAAAUUAGAGUAUGAAAACCAGUGUUCAAUUUUUUAUCUUGUUGAGCUUGUAAAAUGCCAGCAAUUUAAAACUAGGACUU | 0.368
AGGGGAGGGCAGGCUUGGGGAAAAUGGCCAUGCAGGAGGUGGAGAAAAUUGGAACUCUACUCAACCCAUUGUUGUCAAGGAAGAAGAAAUCUUUCUCCCUCAACUGAAGG | 0.655
GAAAGGGGAGUACUCUUGUACAGCCAGUUCUUUUAUGCAAAAAUCUAUGCAUUUUUACAAUCUUAUAUUAAACUGGUAUUUUCAAACAAUAGGAAACUUUUUUUUUUUUU | 0.612
AUAUUUCCAAGACCCUACAACUCCAGCCUUGCCCUAUGACAUCAUCAAGGAUCUCCACAGAGGUGACUGUUGCCUAUCCACAACGACACUAGUGAUCACUCUUCAGAGAG | 0.394
UGUGAAGAAUCAACUCUAGGGUUACCUGUGAAGCCACGCGGUGGUGUUCGAAGCUGUCUGGUAAUGCCCCCAUCUCUCCCCGGGUCCAGUGGAUUUUUUUAACUAUUAUU | 0.658
ACAAGUACCAUUGUUGAUUGAUAAGUAGAGAUACAUUUUUUAUGAUGUUCAUCACAGUGUGGUAAGGUUGCAAAUUCAAAACAUGUCACCCAAGCUCUGUUCAUGUUUUU | 0.351
UCACCAACUAGUCUCAAAAGAUUGUCUUAAGCCCUGACGAUGGCUGUCCCCAGCCACACCUUGGGGCAUCCUCUCUGCCUGGCCCUGUCUGAUGAGCAUUUCUGUUGCUU | 0.277
GUGGAAAAAUAAAGUACAUUUUGAAGUAUCUUGAGGGUUGGGUCAAUUGAGACAUUUCUAGCAUUACUUAAUGACUUGCAUUGUGGUUUUUCUGCAAGCAACUUUAAUGA | 1.77
GCUGCAUUUUUGAAGCUGCCUGGCCCCCAGGGGCCCUGACCUGACCUCUCUCCUCUCCCCUCACCCUCCUGCCCCUGGCCACUGCAGGAUCAGGAGGGGAGAAGAAGGAG | 0.702

Series 5 — method: protein binding microarray; molecule type: double-stranded DNA, one strand shown; medium: in vitro; concentration: not given; baseline: not given; direction: higher = stronger binding
Target: Histone acetyltransferase KAT6A, winged helix 2, GST fusion (KAT6A, Homo sapiens, UniProt Q92794, residues 85-181)
Notes: 8-mer, flanks averaged, mean of 2 arrays, mostly near background
Target sequence (chain): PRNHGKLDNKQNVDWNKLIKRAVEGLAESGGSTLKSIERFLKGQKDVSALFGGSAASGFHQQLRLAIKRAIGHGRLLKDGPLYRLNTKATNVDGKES
Sequence | E-score
GCTTATCC | 0.0222
CTTAATGA | -0.0894
ACATGCAC | -0.108
AATATTAC | -0.0888
CGGTGCCC | 0.179
ATGGAGGA | -0.0141
GAGCCGTA | 0.205
ACACAGTG | 0.0359
ATTATGTC | -0.0693
CCGACTCG | 0.187
GGTTCTGA | 0.0703
CTCGAGCA | 0.0543
AAATATAC | -0.143
CCCAGCGA | 0.159
CGTTGGAC | -0.073
CATAACGA | -0.132
AAAAACTC | 0.0887
ATGCCCAA | -0.00788
CCTGCTCA | 0.115
AGAGAGCC | 0.0356
AGTCCACT | -0.114

Series 6 — method: protein-binding microarray; molecule type: double-stranded DNA, one strand shown; medium: in vitro; concentration: not given; direction: higher = stronger binding
Target: Transcription factor Sp1 (SP1, Homo sapiens, UniProt P08047, residues 1-785, full length assumed)
Chain of UniProt P08047 (whole entry, looked up): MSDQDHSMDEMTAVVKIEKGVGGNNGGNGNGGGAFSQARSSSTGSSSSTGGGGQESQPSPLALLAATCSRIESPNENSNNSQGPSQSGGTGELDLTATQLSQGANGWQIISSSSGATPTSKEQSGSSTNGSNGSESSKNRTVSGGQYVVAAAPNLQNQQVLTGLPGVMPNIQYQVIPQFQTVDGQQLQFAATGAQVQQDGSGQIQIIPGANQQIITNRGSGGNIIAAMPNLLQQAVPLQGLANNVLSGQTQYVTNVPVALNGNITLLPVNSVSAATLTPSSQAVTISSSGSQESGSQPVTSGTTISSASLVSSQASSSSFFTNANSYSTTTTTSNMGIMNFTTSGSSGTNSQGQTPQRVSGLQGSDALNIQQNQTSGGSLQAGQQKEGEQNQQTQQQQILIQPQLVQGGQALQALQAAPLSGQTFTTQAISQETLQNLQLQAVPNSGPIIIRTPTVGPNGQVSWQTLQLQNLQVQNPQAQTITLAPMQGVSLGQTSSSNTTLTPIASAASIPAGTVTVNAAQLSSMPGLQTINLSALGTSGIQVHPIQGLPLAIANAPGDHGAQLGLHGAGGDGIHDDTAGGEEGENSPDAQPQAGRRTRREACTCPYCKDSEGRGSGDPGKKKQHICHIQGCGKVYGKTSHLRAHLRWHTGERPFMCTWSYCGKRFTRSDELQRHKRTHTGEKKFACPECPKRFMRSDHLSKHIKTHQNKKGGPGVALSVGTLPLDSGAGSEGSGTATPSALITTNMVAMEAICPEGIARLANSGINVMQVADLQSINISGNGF
Notes: k-mer, scored over probes, only values ≥0.25
Sequence | E-score
CCCCCTCC | 0.377
AGCCCCGC | 0.26
AAGGGGTA | 0.265
CTCCGCCC | 0.458
AGTGGGGA | 0.301
TAATGACA | 0.252
ATGGGTGG | 0.325
ATGAGGGG | 0.323
AATATATA | 0.285
CCTCCCTC | 0.422
GGGTGGGA | 0.474
ATTGTATA | 0.294
CCGCCCAC | 0.493
ACCCCGCC | 0.487
CAAAGGGG | 0.275
ACAACCCC | 0.303
ACCCACTG | 0.294
TACTATAA | 0.264
GCCTCCCC | 0.446
AAATATGA | 0.268
AAGGGGAT | 0.265
CCCGCCCC | 0.498
GCCCCGCC | 0.493
ACCACCCA | 0.314

Excerpt of the above (series 6):
Sequence | E-score
CTCCGCCC | 0.458
AGTGGGGA | 0.301
TAATGACA | 0.252
ATGGGTGG | 0.325
ATGAGGGG | 0.323
AATATATA | 0.285
CCTCCCTC | 0.422
GGGTGGGA | 0.474
ATTGTATA | 0.294
CCGCCCAC | 0.493
ACCCCGCC | 0.487
CAAAGGGG | 0.275
ACAACCCC | 0.303
ACCCACTG | 0.294
TACTATAA | 0.264
GCCTCCCC | 0.446
